Published values pooled from the literature.
Protocols differ between the studies behind these lines.
PRKCQ: Protein kinase C theta type (PRKCQ, Homo sapiens, UniProt Q04759)
UniProt Q04759, sequence (whole entry, looked up): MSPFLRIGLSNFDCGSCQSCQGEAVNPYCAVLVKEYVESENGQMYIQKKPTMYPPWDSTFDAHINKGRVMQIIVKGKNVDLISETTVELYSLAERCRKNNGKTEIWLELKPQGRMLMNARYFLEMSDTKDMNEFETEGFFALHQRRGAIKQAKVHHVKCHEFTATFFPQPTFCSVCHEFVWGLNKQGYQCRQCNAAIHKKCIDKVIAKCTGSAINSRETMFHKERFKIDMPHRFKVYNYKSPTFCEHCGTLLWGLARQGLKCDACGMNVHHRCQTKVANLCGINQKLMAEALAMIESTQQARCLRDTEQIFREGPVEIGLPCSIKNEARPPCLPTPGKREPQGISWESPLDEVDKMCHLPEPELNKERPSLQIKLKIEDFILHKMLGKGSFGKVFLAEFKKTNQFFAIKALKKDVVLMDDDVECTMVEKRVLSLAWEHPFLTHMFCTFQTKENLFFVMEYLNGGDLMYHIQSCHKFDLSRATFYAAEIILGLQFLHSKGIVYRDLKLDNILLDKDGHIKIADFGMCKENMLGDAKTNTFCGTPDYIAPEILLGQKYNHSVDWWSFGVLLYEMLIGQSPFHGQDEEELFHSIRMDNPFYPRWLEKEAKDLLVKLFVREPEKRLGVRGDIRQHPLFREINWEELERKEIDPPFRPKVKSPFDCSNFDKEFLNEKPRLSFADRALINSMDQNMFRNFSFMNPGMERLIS
UniProt O75747, sequence (whole entry, looked up): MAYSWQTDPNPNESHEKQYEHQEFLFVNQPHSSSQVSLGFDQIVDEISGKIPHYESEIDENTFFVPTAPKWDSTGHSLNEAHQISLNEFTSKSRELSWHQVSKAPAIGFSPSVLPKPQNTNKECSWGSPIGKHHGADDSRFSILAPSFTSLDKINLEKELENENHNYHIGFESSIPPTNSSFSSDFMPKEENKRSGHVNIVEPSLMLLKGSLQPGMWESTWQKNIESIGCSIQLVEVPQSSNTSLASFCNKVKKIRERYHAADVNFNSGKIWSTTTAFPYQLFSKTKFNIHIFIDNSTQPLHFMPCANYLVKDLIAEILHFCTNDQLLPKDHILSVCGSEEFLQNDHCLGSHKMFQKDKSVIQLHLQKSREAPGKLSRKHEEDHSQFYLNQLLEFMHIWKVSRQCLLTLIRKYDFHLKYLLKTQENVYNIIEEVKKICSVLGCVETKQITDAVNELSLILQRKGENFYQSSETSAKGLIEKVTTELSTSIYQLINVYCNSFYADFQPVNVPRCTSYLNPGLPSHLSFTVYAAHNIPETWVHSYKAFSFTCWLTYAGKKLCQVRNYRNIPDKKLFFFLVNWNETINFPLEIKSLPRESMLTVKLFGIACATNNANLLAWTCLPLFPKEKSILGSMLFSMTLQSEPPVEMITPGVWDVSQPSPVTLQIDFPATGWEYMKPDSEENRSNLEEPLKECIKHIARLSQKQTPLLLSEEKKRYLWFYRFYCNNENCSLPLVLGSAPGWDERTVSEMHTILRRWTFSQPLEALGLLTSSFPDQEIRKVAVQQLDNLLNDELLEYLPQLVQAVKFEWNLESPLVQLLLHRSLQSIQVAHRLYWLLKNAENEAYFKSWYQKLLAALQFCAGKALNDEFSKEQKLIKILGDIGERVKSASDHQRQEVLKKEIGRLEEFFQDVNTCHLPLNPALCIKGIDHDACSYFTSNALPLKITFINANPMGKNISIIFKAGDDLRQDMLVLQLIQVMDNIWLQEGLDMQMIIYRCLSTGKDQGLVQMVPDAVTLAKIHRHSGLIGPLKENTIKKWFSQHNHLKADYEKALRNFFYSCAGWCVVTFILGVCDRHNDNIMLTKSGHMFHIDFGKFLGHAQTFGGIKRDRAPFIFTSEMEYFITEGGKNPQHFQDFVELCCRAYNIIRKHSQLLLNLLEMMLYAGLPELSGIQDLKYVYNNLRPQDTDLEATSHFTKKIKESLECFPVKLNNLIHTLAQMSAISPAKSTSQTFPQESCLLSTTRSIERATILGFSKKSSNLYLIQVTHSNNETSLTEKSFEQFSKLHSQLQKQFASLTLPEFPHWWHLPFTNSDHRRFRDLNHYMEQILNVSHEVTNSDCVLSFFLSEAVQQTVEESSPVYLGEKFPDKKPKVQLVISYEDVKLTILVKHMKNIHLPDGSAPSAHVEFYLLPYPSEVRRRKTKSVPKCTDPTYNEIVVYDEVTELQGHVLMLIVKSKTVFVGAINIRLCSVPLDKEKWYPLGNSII
UniProt P27448, sequence (whole entry, looked up): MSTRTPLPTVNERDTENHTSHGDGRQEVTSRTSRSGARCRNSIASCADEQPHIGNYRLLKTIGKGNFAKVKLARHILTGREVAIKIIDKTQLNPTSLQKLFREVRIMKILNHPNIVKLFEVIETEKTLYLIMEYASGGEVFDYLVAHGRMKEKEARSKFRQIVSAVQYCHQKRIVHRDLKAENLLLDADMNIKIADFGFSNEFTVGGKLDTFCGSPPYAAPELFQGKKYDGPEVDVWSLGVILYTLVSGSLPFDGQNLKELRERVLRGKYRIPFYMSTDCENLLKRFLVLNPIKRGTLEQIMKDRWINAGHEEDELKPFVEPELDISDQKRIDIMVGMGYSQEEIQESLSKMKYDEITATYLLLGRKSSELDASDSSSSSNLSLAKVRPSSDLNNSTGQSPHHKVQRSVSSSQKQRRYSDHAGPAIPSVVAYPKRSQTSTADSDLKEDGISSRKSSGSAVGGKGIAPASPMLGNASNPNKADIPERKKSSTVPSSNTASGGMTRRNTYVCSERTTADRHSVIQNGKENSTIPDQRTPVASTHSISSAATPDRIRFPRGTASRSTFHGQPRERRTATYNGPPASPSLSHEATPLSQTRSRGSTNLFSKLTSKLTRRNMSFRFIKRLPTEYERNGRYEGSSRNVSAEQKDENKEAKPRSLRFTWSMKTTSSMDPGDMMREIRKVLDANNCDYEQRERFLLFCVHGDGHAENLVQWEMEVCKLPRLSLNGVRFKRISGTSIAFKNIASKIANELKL

target | read-out | mode | technique | concentration | measurement | result | SMILES
PRKCQ | enzyme activity | inhibitor |  | 1 µM | remaining activity | 117% | COc1cc(-c2cncc3c2CN(C)Cc2cc(N4CCNCC4)ccc2-3)cc(OC)c1OC
PIK3C2G (Homo sapiens, UniProt O75747) | binding |  | competition with immobilised ligand | 0.5 µM | remaining binding | 58% | CCCCC(=O)Nc1ccc(-c2ccc3ncn(CCC)c(=O)c3c2)cn1
PRKCQ | binding |  | competition with immobilised ligand | 1 µM | remaining binding | 99% | C=CC(=O)N1CCC(COCC(=O)N2CCN(c3nc(-c4cnc(N)nc4C(F)F)nc(N4CCOC[C@@H]4C)n3)CC2)CC1
PRKCQ | enzyme activity | inhibitor | radiometric | 1 µM | remaining activity | 97% | CNc1ncc2c(/C=C/C(=O)N3CCC(OC)CC3)nn(Cc3cccc(C(F)(F)F)c3)c2n1
MARK3 (Homo sapiens, UniProt P27448) | binding |  | competition with immobilised ligand | 1 µM | remaining binding | 100% | Cc1cc([C@@H](C)Nc2ccccc2C(=O)O)c2nc(N3CCC(F)(F)CC3)c(C#N)c(=O)n2c1
